Assay results from different studies.
Lines come from different studies, so protocols differ. pIC50: −log10 of the molar value.
Organism: Leishmania donovani

SMILES	test	test system	conditions	how to read	quantity	value
CC(C)(C)OC(=O)/C=C/c1ccc(O)c(O)c1	–	MHOM/ET/67/L-82	concentration not given, axenic amastigotes, active if IC50 < 10 µM	–	antileishmanial activity	active
CC(=O)Oc1ccc(Cn2cc(C)c(=O)[nH]c2=O)cc1C1OC(c2ccccc2)=NN1C(C)=O (centres unmarked)	parasite growth, SYBR Green	RAW264.7	intracellular, amastigote	–	pIC50	< 4.00
CC(C)(C)OC(=O)/C=C/c1ccc(O)c([N+](=O)[O-])c1	–	MHOM/ET/67/L-82	–	baseline: IC50 L6 cells over IC50 amastigotes	selectivity index	96
CCCCCCCCCCCCCCCCC1CC(=O)NCCCN(C)CCCCN(C)CCCN1C (centres unmarked)	Alamar blue	–	72 h, 26 °C, promastigotes	–	IC90	6.3 µg/mL
CC/C(=C\c1ccc(OCC(=O)NC(C(=O)N2CCOCC2)c2ccccc2)cc1)[N+](=O)[O-] (centres unmarked)	–	macrophages, intracellular amastigotes	3.125 µM, 72 h	–	inhibition	36.7%
O=S(=O)(CCC(F)(F)F)N[C@H]1CC[C@H](Nc2ncc3c(-c4ccccn4)n[nH]c3n2)CC1	–	LV9, BALB/c mouse, visceral leishmaniasis	oral, 50 mg/kg twice daily, 5 days	–	parasite reduction	> 70%
CCOC(=O)C(C)NC(=O)CN1C(=O)S/C(=C\c2ccc(F)cc2)C1=O (centres unmarked)	parasite growth, resazurin	–	promastigote	–	pIC50	< 4.00
COC(=O)/C=C/c1ccc(O)c([N+](=O)[O-])c1	–	MHOM/ET/67/L-82	–	baseline: IC50 L6 cells over IC50 amastigotes	selectivity index	375
Cc1cc2[nH]c(C(=O)Nc3ccccc3C)c(CN3CCOCC3)c2s1	parasite growth	THP-1	80 µM, intracellular, amastigote	–	inhibition	39%
CCOC(=O)CNC(=O)CN1C(=O)S/C(=C\c2ccc(C)cc2)C1=O	parasite growth	–	24 h, intracellular, amastigote	–	pIC50	< 5.00
CC(C)OC(=O)/C=C/c1ccc(O)c([N+](=O)[O-])c1	–	MHOM/ET/67/L-82	–	baseline: IC50 L6 cells over IC50 amastigotes	selectivity index	113
CCOC(=O)C(NC(=O)CN1C(=O)N/C(=C\c2ccc3c(c2)OCO3)C1=O)C(C)C (centres unmarked)	parasite growth	–	24 h, intracellular, amastigote	–	pIC50	< 5.00
CC/C(=C\c1ccc(OCC(=O)NC(C(=O)N2CCSCC2)c2ccccc2)cc1)[N+](=O)[O-] (centres unmarked)	–	THP-1, intracellular amastigotes in macrophages	–	baseline: CC50 THP-1 over IC50 amastigotes	selectivity ratio	4.65
CCC(NC(=O)CN1C(=O)N/C(=C\c2ccc(C)cc2)C1=O)C(=O)OC (centres unmarked)	parasite growth	–	72 h, intracellular, amastigote	–	pIC50	5.11
CCCCCCCCCC1CC2CCCC3CC(CCCCCCCCC)NC(=N1)N23 (centres unmarked)	parasite growth, Alamar Blue	promastigotes	–	–	IC90	12.8 µM
CCOC(=O)C(NC(=O)CN1C(=O)/C(=C/c2ccc3c(c2)OCO3)SC1=S)C(C)C (centres unmarked)	parasite growth	–	72 h, intracellular, amastigote	–	pIC50	6.51
CCCCOC(=O)/C=C/c1ccc(O)c(O)c1	–	MHOM/ET/67/L-82	concentration not given, axenic amastigotes, active if IC50 < 10 µM	–	antileishmanial activity	active

A few entries again:
SMILES	test	test system	conditions	how to read	quantity	value
CCOC(=O)CNC(=O)CN1C(=O)S/C(=C\c2ccc(C)cc2)C1=O	parasite growth	–	24 h, intracellular, amastigote	–	pIC50	< 5.00
